Measurements collected from several papers.
Lines come from different studies, so protocols differ. ± marks the error that the study gave.
PARP1 full length assumed: PARP1 full length assumed (Homo sapiens, UniProt P09874)
Sequence of UniProt P09874 (whole entry, looked up): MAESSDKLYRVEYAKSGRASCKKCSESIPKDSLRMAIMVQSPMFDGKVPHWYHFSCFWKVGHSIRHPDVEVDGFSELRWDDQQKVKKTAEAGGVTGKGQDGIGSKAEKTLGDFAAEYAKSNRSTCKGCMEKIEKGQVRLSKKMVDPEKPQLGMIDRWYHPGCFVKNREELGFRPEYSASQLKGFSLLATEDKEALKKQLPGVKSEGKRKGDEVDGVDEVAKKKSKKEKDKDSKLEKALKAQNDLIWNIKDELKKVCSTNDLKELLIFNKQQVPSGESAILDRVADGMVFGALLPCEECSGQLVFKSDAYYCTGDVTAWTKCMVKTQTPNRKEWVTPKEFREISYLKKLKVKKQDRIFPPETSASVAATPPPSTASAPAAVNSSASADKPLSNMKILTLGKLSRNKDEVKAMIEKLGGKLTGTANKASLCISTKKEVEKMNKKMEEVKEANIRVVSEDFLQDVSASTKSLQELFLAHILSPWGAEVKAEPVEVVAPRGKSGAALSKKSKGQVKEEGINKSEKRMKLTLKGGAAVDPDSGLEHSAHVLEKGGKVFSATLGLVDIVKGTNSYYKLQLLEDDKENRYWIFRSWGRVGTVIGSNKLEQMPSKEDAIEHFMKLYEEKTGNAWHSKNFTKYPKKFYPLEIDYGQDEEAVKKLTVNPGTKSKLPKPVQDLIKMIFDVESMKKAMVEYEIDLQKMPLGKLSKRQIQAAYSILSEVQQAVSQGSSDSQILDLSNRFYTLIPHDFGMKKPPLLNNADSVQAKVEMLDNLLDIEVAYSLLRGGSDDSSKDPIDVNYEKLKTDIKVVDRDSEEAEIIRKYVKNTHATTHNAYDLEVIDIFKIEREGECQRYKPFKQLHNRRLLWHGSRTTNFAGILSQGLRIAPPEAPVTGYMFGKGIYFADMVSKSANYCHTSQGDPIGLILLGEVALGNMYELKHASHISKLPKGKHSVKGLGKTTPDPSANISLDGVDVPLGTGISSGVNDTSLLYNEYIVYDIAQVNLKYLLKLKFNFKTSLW
RNA polymerase holoenzyme sigma70: RNA polymerase holoenzyme sigma70 (Escherichia coli)
C5a: C5a (Homo sapiens, UniProt P01031)
Sequence of UniProt P01031 (whole entry, looked up): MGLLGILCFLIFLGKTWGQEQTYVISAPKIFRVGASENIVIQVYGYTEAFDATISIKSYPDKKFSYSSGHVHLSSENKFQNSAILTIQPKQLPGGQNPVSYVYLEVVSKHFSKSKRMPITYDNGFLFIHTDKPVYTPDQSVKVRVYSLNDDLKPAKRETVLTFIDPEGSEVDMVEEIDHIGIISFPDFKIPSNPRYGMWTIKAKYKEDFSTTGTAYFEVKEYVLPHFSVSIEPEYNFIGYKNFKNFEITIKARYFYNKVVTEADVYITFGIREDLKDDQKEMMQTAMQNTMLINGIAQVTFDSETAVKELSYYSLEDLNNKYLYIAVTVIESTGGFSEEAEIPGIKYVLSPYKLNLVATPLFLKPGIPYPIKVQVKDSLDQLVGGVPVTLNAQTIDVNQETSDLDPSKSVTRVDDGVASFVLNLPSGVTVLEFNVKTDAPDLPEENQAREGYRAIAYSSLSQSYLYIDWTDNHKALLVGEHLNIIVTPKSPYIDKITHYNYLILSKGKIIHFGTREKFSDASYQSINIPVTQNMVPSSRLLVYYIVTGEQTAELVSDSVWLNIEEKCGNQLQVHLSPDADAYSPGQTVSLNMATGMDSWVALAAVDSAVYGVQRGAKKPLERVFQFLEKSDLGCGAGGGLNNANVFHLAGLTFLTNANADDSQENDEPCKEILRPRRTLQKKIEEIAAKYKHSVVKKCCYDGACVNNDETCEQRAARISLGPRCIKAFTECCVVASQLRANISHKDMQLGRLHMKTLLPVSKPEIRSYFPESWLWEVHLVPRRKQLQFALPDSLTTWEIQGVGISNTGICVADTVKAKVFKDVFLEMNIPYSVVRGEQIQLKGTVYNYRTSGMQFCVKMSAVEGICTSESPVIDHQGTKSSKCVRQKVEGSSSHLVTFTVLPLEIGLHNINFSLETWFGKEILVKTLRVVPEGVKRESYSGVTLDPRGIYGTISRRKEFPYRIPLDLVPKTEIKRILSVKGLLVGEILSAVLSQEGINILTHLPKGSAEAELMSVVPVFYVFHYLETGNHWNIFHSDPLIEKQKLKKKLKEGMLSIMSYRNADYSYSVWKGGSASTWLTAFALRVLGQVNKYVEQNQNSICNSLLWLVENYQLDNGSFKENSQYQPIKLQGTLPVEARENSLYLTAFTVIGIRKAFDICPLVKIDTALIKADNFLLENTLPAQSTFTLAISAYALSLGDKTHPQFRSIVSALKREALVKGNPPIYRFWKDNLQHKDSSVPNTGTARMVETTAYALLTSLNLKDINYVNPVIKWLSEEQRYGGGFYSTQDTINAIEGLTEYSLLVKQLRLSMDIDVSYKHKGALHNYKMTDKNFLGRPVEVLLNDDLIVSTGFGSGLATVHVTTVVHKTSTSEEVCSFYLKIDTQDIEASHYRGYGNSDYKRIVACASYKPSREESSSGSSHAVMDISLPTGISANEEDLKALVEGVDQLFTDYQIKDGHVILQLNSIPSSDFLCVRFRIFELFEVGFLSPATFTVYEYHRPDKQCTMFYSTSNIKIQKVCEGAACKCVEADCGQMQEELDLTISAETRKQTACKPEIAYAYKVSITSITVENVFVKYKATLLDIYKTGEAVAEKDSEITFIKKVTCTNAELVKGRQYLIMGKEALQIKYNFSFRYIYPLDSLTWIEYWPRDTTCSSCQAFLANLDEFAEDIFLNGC
dnaA: dnaA 77-399 (Aquifex aeolicus, UniProt O66659)
Sequence of UniProt O66659 (whole entry, looked up): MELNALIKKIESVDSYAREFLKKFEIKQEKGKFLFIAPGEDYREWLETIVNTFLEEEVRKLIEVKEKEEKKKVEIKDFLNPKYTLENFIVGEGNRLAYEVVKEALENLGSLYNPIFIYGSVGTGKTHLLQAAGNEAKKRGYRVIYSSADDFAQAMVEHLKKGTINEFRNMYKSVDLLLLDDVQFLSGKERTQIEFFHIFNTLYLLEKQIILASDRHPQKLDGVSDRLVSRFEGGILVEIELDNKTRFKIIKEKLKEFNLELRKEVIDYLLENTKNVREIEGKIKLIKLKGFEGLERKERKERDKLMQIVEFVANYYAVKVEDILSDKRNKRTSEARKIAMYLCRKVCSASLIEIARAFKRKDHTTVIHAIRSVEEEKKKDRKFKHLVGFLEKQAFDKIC
T1: MBNL1 1-382 (Homo sapiens); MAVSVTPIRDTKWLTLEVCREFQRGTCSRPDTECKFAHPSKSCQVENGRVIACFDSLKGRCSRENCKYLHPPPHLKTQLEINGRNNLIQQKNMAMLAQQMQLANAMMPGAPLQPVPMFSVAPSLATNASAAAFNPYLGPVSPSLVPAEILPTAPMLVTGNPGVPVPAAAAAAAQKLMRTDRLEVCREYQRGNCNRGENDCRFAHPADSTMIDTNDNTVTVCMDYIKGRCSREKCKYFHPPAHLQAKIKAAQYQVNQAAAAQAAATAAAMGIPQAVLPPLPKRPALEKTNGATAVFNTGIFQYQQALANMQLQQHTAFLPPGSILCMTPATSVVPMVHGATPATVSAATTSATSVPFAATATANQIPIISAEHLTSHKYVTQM
B1: UGT1A9 (Homo sapiens, UniProt O60656); chain GKLLVVPMDGSHWFTMRSVVEKLILRGHEVVVVMPEVSWQLGRSLNCTVKTYSTSYTLEDLDREFKAFAHAQWKAQVRSIYSLLMGSYNDIFDLFFSNCRSLFKDKKLVEYLKESSFDAVFLDPFDNCGLIVAKYFSLPSVVFARGILCHYLEEGAQCPAPLSYVPRILLGFSDAMTFKERVRNHIMHLEEHLLCHRFFKNALEIASEILQTPVTEYDLYSHTSIWLLRTDFVLDYPKPVMPNMIFIGGINCHQGKPLPMEFEAYINASGEHGIVVFSLGSMVSEIPEKKAMAIADALGKIPQTVLWRYTGTRPSNLANNTILVKWLPQNDLLGHPMTRAFITHAGSHGVYESICNGVPMVMMPLFGDQMDNAKRMETKGAGVTLNVLEMTSEDLENALKAVINDKSYKENIMRLSSLHKDRPVEPLDLAVFWVEFVMRHKGAPHLRPAAHDLTWYQYHSLDVIGFLLAVVLTVAFITFKCCAYGYRKCLGKKGRVKKAHKSKTH
Sequence of UniProt Q13325 (whole entry, looked up): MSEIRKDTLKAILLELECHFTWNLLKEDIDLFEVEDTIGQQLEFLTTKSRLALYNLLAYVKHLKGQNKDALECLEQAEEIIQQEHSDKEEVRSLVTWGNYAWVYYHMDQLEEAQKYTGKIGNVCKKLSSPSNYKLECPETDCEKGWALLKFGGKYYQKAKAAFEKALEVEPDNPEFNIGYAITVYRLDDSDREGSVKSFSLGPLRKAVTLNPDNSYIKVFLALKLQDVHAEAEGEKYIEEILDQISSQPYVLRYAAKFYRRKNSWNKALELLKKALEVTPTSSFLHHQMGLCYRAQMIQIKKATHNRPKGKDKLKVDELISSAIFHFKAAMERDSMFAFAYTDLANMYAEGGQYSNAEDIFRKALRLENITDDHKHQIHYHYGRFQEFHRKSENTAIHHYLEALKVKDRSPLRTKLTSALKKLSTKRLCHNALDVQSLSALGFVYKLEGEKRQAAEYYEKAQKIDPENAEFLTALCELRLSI
Sequence of UniProt Q9FGD6 (whole entry, looked up): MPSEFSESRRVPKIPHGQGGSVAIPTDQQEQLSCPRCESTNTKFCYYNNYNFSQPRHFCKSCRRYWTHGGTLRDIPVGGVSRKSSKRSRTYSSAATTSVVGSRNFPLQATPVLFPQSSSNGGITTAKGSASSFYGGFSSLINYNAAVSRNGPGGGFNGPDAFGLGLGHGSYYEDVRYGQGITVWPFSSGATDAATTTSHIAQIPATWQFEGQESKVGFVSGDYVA
Sequence of UniProt Q8H1D4 (whole entry, looked up): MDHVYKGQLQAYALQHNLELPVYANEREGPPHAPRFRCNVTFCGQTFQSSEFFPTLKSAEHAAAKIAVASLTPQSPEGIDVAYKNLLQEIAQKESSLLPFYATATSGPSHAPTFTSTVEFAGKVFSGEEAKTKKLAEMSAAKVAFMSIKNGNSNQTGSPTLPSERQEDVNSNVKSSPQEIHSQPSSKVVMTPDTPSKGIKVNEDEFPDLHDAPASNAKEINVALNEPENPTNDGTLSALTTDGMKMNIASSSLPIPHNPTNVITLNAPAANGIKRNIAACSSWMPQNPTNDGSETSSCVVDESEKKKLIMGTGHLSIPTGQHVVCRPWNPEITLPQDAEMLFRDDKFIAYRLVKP
Sequence of UniProt Q969S2 (whole entry, looked up): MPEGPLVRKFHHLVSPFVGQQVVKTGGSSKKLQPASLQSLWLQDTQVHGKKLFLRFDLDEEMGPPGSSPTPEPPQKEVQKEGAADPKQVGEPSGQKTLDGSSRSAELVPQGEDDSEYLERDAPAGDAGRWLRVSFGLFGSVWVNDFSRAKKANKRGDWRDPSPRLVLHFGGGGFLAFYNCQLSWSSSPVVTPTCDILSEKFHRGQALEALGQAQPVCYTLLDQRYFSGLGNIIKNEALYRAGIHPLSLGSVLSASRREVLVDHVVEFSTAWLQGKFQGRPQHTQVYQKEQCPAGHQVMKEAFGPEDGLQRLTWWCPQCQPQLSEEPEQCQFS

Substance = CAACTGAGACCATGTACCCAGTTCGAATCGGATGTATATATCTGACACGTGCCTGGAGACTAGGGAGTAATCCCCTTGGCGGTTAAAACGCGGGGGACAGCGCGTACGTGCGTTTAAGCGGTGCTAGAGCTGTCTACGACCAATTGAGCGGCCTCGGCACCGGGATTCTCGATAACTCAGCAATAGTGGGTCTCA / ACCATGAGACCCACTATTGCTGAGTTATCGAGAATCCCGGTGCCGAGGCCGCTCAATTGGTCGTAGACAGCTCTAGCACCGCTTAAACGCACGTACGCG / CTGTCCCCCGCGTTTTAACCGCCAAGGGGATTACTCCCTAGTCTCCAGGCACGTGTCAGATATATACATCCGATTCGAACTGGGTACATGGTCTCA (nucleosome DNA; nicked bottom strand, 5'-OH); tested on = PARP1 full length assumed; assay = optical tweezers; conditions = single molecule, not purified, added: force 4 pN; measurement = Kd; value = 2.2 ± 0.3 nM
Substance = GAGGCCCTTTCGTCTTCAAGAATTCTATTTGACAAAAATGGGCTCGTGTTGTACAATAAATGTGTCTAAGCTTGGGTCCCACCTGAC (dsDNA (Bacillus subtilis); blunt, A replaced by 7-methyl-7-deazaadenine); tested on = RNA polymerase holoenzyme sigma70; assay = EMSA; system = double-stranded DNA, one strand shown; measurement = Kd; value = 54.3 ± 4.4 nM
Substance = GACGTCCTCGCATCAAGATGCTGCTGCCATCTTATATTTTCTATACAATAAGTATAGAAAATATAAGATGGCAGCAGCATCTTGATGCGAGGACGTCTA (dsDNA; hairpin, AATAA loop, 3' overhang 2-nt); tested on = SPO11/TOP6BL (Mus musculus); assay = EMSA; conditions = without Mg2+; measurement = Kd; value = 43.5 ± 2.15 nM
Substance = CGCTAGGATCNGGCCCCGCC / GGCGGGGCCGGATCCTAGCG (dsDNA; blunt, tetrahydrofuran abasic site opposite G); tested on = NEIL2 full length assumed (Homo sapiens, UniProt Q969S2); assay = EMSA; conditions = apparent, cooperative fit; measurement = Kd; value = 24 nM
Substance = GCCUGAUGUGGUGGUGAAGGGUUGUUGGGUGUCGACGCACAGGC (L-RNA; terminal stem, one DNA residue); tested on = C5a; assay = SPR; measurement = Kd; value = 0.71 nM
Substance = UGAGGUAGUAGGUUGUAUAGUU / CUAUACAACCUACUACCUCANN (dsRNA; 3' overhang 2 nt); tested on = DBR4 1-75 (Arabidopsis thaliana, UniProt Q8H1D4); assay = ITC; conditions = averaged single site; measurement = Kd; value = 8700 ± 2800 nM
Substance = GGACAGGACCACACCCAGCGCGGTCGGCGGGTGGGCGGGGGGAGAACGAGGTAGGGGTCAGGCTCCTGTGTGTCGCTTTGT (ssDNA); tested on = LDLR fragment (Homo sapiens); assay = flow cytometry; system = MDA-MB-231; conditions = in cells, tRNA competitor, not purified; measurement = Kd; value = 252 nM
Substance = GAGGCCCTTTCGTCTTCAAGAATTCTATTTGACAAAAATGGGCTCGTGTTGTACAATAAATGTGTCTAAGCTTGGGTCCCACCTGAC (dsDNA (Bacillus subtilis); blunt, A replaced by 7-phenyl-7-deazaadenine); tested on = RNA polymerase holoenzyme sigma70; assay = EMSA; system = double-stranded DNA, one strand shown; measurement = Kd; value = 35.8 ± 5 nM
Substance = TAGACGTCCTCGCATCAAGATGCTGCTGCCATCTTATATTTTCTATACAATAAGTATAGAAAATATAAGATGGCAGCAGCATCTTGATGCGAGGACGTC (dsDNA; hairpin, AATAA loop, 5' overhang 2-nt); tested on = SPO11/TOP6BL (Mus musculus); assay = EMSA; conditions = without Mg2+; measurement = Kd; value = 30.5 ± 2.63 nM
Substance = GGGAGACCGGCCUCGA (ssRNA; 5' triphosphate, linear); tested on = IFIT5 full length assumed (Homo sapiens, UniProt Q13325); assay = BLI; conditions = without Mg2+; measurement = Kd; value = 42.7 nM
Substance = B1 (UGT1A9); tested on = O=c1cc(-c2ccccc2O)oc2ccccc12; assay = steady-state kinetics; conditions = pH 7.4, 37 °C; measurement = Vmax/Km; value = 186 µL/min/mg
Substance = GAGUUGAGUUGAGUUGAGUUGAGUUGAGUUGAGUUGAGUUGAGUUGAGUUGAGUU (ssRNA; single strand); tested on = mtrB full length assumed T30N (Bacillus subtilis, UniProt P19466); assay = filter binding; conditions = added: no tryptophan; measurement = Kd; value = 518 ± 70 nM
Substance = TGGCGACGGCAGCGAGGCTTTTTTTTTTTTTTTTTTTTTTTTTTTTTTTTTTTTTTTTTTTTTTTTTTTTTT / GCCTCGCTGCCGTCGCCA (DNA duplex; 18 bp, 3' overhang, C6-amino-dT); tested on = dnaA; assay = EMSA; conditions = added: ADP-BeF3; measurement = Kd; value = 2000 nM
Substance = AAATAATCATAAAGTATTAAAGTAATATATAC (dsDNA (Arabidopsis thaliana)); tested on = DOF5.8 zinc finger (Arabidopsis thaliana, UniProt Q9FGD6); assay = EMSA; system = double-stranded DNA, one strand shown; measurement = Kd; value = 5000 nM
Substance = CUGCUGCUGCUGCUGCUGCUGCUGCUGCUGCUGCUGCUGCUGCUGCUGCUGCUGCUGCUGCUGCUGCUGCUGCUGCUGCUGCUGCUGCUGCUGCUGCUGCUGCUGCUGCUGCUGCUGCUGCUGCUGCUGCUGCUGCUGCUGCUGCUGCUGCUGCUGCUGCUG (RNA hairpin; hairpin); tested on = T1, MBNL1 1-382 (Homo sapiens); assay = filter binding; measurement = Kd; value = 5.3 ± 0.6 nM
Substance = GCGGACGGACAGAGAGUGCAACCUGCCGUGCCGC (ssRNA; 2'-F pyrimidines, 5' thiol-C6); tested on = ITGA5/ITGB1 on cells (Homo sapiens); assay = flow cytometry; system = T24; conditions = apparent, no added Mg2+/Ca2+, not purified; measurement = Kd; value = 226 ± 30.8 nM
Substance = GUGAUGUGGUGGUGAAGGGUUGUUGGGUGUCGACGCACAC (L-RNA; terminal stem, six DNA residues); tested on = C5a; assay = SPR; measurement = Kd; value = 0.8 nM
Substance = TTTTTTTTTTTTTTTTTTTTTTTTTTTTTTTTTTTTTTTTTTTTTTTTTTTTTTCGGAGCGACGGCAGCGGT / ACCGCTGCCGTCGCTCCG (DNA duplex; 18 bp, 5' overhang, C6-amino-dT); tested on = dnaA; assay = EMSA; conditions = added: ADP-BeF3; measurement = Kd; value = 1600 nM
Substance = CAACTGAGACCATGTACCCAGTTCGAATCGGATGTATATATCTGACACGTGCCTGGAGACTAGGGAGTAATCCCCTTGGCGGTTAAAACGCGGGGGACAGCGCGTACGTGCGTTTAAGCGGTGCTAGAGCTGTCTACGACCAATTGAGCGGCCTCGGCACCGGGATTCTCGATAACTCAGCAATAGTGGGTCTCA / ACCATGAGACCCACTATTGCTGAGTTATCGAGAATCCCGGTGCCGAGGCCGCTCAATTGGTCGTAGACAGCTCTAGCACCGCTTAAACGCACGTACGCGCTGTCCCCCGCGTTTTAACCGC / CAAGGGGATTACTCCCTAGTCTCCAGGCACGTGTCAGATATATACATCCGATTCGAACTGGGTACATGGTCTCA (nucleosome DNA; nicked bottom strand, 5'-OH); tested on = PARP1 full length assumed; assay = optical tweezers; conditions = single molecule, not purified, added: force 4 pN; measurement = Kd; value = 3.9 ± 0.4 nM
Substance = GCUGAUGUGGUGGUGAAGGGUUGUUGGGUGUCGACGCACAGC (L-RNA; terminal stem, six DNA residues); tested on = C5a; assay = SPR; measurement = Kd; value = 0.3 nM
